Measured values collected from several papers.
Compare with care: the assays were run in different laboratories. ± gives the spread as reported.
Oprd1: Delta-type opioid receptor (Oprd1, Rattus norvegicus, UniProt P33533)
Chain of UniProt P33533 (whole entry, looked up): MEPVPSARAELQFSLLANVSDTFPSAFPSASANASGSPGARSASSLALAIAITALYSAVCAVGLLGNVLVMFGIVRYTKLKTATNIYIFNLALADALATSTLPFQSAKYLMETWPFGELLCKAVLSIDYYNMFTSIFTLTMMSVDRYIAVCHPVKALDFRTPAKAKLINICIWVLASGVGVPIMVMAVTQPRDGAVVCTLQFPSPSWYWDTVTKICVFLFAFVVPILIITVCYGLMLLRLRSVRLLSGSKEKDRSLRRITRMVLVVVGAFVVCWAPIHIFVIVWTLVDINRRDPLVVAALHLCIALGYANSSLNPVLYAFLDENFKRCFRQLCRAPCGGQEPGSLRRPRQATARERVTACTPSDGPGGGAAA
Chain of UniProt Q06GJ0 (whole entry, unmodified, looked up): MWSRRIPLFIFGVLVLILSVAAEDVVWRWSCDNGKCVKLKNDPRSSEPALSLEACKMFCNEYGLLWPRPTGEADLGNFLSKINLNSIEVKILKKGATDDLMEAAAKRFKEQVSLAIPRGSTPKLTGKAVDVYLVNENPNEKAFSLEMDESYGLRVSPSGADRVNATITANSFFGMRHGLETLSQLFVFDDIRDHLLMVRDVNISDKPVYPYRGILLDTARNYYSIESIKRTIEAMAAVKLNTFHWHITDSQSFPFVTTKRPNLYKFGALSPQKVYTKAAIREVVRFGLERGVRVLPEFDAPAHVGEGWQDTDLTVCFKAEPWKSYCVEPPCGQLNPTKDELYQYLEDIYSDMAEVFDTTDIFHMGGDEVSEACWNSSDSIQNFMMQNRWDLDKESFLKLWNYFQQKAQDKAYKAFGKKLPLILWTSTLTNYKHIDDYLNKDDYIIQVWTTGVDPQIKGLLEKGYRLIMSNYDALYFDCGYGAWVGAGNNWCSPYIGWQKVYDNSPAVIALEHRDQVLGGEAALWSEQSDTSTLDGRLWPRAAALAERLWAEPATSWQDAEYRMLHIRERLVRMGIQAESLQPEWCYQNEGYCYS
Chain of UniProt P62942 (whole entry, looked up): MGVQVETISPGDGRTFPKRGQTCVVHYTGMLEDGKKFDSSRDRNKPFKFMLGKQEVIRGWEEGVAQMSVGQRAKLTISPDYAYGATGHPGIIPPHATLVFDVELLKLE
Chain of UniProt Q96NY8 (whole entry, looked up): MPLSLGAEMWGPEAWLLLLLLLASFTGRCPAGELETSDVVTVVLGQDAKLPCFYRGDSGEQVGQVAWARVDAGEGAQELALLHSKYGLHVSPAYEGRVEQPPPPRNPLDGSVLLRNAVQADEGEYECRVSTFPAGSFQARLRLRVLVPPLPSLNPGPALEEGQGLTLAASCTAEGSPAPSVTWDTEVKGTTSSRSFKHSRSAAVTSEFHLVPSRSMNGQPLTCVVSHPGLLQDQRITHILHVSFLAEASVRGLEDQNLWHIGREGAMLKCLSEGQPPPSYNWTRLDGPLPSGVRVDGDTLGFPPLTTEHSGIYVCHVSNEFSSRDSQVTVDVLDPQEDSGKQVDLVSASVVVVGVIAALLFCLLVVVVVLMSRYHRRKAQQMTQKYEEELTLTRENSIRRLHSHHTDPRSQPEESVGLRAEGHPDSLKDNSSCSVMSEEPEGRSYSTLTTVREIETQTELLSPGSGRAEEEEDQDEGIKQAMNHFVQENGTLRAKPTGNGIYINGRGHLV
Chain of UniProt P29117 (whole entry, looked up): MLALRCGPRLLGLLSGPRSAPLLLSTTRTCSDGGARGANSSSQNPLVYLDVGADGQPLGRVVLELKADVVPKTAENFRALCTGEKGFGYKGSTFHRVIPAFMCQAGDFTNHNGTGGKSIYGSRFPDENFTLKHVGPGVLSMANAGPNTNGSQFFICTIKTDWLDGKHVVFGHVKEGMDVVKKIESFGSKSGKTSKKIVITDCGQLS
Chain of UniProt Q07817 (whole entry, looked up): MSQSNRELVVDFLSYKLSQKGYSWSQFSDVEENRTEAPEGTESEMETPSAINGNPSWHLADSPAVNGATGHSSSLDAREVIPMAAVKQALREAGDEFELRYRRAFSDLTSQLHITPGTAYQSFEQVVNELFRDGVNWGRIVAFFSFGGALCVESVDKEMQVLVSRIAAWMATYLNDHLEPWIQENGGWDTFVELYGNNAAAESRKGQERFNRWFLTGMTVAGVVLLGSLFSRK
Chain of UniProt P50406 (whole entry, looked up): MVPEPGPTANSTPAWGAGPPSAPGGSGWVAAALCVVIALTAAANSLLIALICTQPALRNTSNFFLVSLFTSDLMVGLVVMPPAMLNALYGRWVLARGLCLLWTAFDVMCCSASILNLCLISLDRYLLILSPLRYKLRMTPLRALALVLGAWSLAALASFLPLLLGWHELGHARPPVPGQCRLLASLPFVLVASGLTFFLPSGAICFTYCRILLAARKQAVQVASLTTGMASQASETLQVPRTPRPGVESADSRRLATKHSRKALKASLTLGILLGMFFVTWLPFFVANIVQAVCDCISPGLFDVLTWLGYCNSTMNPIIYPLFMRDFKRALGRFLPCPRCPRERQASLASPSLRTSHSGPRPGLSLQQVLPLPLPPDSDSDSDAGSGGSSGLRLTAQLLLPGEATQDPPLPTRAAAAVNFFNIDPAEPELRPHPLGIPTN
Chain of UniProt P00761 (whole entry, looked up): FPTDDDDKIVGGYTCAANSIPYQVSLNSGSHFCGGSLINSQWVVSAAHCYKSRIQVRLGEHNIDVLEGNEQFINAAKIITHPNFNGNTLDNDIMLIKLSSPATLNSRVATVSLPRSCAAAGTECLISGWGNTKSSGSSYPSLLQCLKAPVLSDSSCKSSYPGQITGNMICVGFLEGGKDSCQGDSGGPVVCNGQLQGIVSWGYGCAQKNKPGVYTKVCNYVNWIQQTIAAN
Chain of UniProt O00748 (whole entry, looked up): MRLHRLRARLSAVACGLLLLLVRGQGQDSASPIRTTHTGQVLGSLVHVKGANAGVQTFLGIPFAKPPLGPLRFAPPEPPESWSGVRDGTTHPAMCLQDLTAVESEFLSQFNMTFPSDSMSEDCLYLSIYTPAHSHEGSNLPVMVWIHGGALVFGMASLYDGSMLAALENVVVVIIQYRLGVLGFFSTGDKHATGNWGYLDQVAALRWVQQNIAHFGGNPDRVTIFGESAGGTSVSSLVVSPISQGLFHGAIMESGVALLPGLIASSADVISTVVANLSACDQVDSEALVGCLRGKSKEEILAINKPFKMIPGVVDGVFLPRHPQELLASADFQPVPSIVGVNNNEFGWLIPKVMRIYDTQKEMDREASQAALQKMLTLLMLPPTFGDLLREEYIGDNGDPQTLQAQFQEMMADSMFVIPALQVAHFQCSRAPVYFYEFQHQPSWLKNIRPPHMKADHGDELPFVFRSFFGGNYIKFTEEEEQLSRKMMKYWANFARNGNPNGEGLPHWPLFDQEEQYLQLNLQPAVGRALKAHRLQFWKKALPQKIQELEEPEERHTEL
Chain of UniProt O15297 (whole entry, looked up): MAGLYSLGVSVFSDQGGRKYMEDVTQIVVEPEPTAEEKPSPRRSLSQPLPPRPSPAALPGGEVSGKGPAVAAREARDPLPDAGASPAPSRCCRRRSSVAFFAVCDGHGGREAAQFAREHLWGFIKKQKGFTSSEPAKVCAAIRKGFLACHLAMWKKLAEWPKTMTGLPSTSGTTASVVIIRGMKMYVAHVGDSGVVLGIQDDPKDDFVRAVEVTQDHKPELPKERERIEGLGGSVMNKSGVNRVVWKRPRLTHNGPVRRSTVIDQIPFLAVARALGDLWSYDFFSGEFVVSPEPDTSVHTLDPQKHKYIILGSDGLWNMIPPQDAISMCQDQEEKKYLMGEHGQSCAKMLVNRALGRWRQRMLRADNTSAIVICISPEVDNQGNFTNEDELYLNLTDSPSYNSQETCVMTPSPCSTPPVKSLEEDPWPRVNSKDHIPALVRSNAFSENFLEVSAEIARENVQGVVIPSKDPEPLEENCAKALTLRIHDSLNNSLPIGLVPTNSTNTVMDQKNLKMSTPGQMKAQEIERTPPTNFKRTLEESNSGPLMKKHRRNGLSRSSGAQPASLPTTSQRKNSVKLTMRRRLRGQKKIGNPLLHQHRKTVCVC
Chain of UniProt Q9Y5X5 (whole entry, looked up): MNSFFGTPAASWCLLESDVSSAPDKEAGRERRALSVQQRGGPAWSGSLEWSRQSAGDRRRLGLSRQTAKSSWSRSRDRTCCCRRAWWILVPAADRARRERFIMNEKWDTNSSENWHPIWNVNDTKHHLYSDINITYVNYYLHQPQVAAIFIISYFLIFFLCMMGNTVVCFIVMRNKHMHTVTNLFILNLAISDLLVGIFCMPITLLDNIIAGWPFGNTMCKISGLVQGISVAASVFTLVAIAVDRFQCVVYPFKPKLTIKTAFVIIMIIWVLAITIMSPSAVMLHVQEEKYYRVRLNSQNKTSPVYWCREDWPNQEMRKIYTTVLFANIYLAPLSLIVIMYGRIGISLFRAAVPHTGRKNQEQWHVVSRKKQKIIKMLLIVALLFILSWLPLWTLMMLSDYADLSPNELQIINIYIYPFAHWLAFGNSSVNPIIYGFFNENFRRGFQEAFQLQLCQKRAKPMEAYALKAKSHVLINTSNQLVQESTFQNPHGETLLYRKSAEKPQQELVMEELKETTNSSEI

| Structure (SMILES) | target | assay | test system | setting | Ki |
| --- | --- | --- | --- | --- | --- |
| CC[C@H](C)[C@H](NC(=O)[C@H](CS)NC(=O)[C@H](CCC(N)=O)NC(=O)[C@H](CC(C)C)NC(=O)[C@H](CCCCN)NC(=O)[C@H](CCCNC(=N)N)NC(=O)[C@H](C)NC(=O)[C@@H](NC(=O)[C@H](CCC(N)=O)NC(=O)[C@@H](NC(=O)[C@H](CCC(=O)O)NC(=O)[C@H](C)NC(=O)[C@H](CCC(N)=O)NC(=O)[C@@H](N)Cc1c[nH]cn1)C(C)C)[C@@H](C)CC)C(=O)N[C@@H](C)C(=O)N[C@@H](CC(=O)O)C(=O)N[C@@H](CCC(N)=O)C(=O)N[C@@H](Cc1ccccc1)C(=O)N[C@@H](Cc1c[nH]cn1)C(=O)N[C@@H](CCCNC(=N)N)C(=O)N[C@@H](CC(C)C)C(=O)N[C@@H](Cc1c[nH]cn1)C(=O)N[C@H](C(=O)N[C@@H](CCC(N)=O)C(=O)N[C@@H](CCC(N)=O)C(=O)O)C(C)C | Bcl-2-like protein 1 (BCL2L1, Homo sapiens, UniProt Q07817) | ligand displacement, FP |  |  | 23 nM |
| CCOC(=O)c1cc(Cc2ccccc2)cc2c1NCCC2NC(=O)C(N)Cc1c(C)cc(O)cc1C (stereo not drawn) | Oprd1 | ligand displacement, radioligand |  | cell membranes | 3.7 nM |
| CC(C)C[C@@H]1NC(=O)[C@H](Cc2ccc(O)cc2)NC(=O)[C@H](CCCNC(=N)N)NC(=O)[C@H](C(C)C)NC(=O)[C@@H]2CCCN2C(=O)[C@H](Cc2ccccc2)NC(=O)[C@H](C)NC(=O)[C@H](CC(N)=O)NC(=O)[C@H](Cc2ccc(OS(=O)(=O)F)cc2)NC(=O)[C@@H](Cc2ccccc2)NC(=O)CSC[C@@H](C(=O)NCCOCCOCC(=O)NCCOCCOCC(=O)N[C@@H](CCCCN=[N+]=[N-])C(N)=O)NC(=O)[C@H](Cc2c[nH]c3ccccc23)NC(=O)[C@H](CCCCN)NC(=O)[C@H](CCCCN)NC1=O | Nectin-4, extracellular domain (Homo sapiens, UniProt Q96NY8) | covalent binder, SPR single-cycle kinetics, two-state model | PBS-T | 800 s contact, 200 s dissociation, 25 °C | 3580 nM |
| COc1ccc(CC[C@H]2OC(=O)[C@@H]3CCCCN3C(=O)C(=O)C(C)(C)COC(=O)/C=C/CCN(C)C(=O)[C@H](CC(C)C)N(C)C(=O)[C@@H]3CCCN3C(=O)[C@H](Cc3ccccc3)N(C)C(=O)[C@H](c3ccccc3)NC(=O)CCC(=O)Nc3cccc2c3)cc1OC | Peptidyl-prolyl cis-trans isomerase FKBP1A (FKBP1A, Homo sapiens, UniProt P62942) | enzyme activity, inhibitor |  |  | 3.7 nM |
| CN1CCN(c2cn(C(=O)c3ccccc3)c3ccccc23)CC1 | 5-hydroxytryptamine receptor 6 (HTR6, Homo sapiens, UniProt P50406) | ligand displacement, radioligand |  | cell membranes | 187 nM |
| CC[C@H](C)[C@@H]1NC(=O)[C@H](COP(=O)(O)O)NC(=O)[C@H](Cc2ccccc2)NC(=O)CSC[C@@H](C(N)=O)NC(=O)[C@H](CCC(=O)O)NC(=O)[C@H](CCC(=O)O)NC(=O)[C@H](Cc2ccc(OP(=O)(O)O)cc2)NC1=O | Protein phosphatase 1D (PPM1D, Homo sapiens, UniProt O15297) | phosphatase activity, inhibitor, malachite green |  | with: ATM pS1981 peptide | 200 ± 20 nM |
| CC(=O)N1CCC(NC(=O)C(N)Cc2c(C)cc(O)cc2C)c2cc(CN3CCC4CCCCC4C3)ccc21 (stereo not drawn) | Oprd1 | ligand displacement, radioligand |  | cell membranes | 2 nM |
| COc1ccc(CNCCN2C(=O)c3cccc4cccc(c34)C2=O)cc1 | Chitooligosaccharidolytic beta-N-acetylglucosaminidase (Ostrinia furnacalis, UniProt Q06GJ0, W490A) | inhibitor |  |  | > 100000 nM |
| CCCCCCCCCCCCCCCC(=O)N[C@@H](CCC(=O)NCCCC[C@H](N)C(=O)NCC(=O)N[C@@H](CO)C(=O)NCC(=O)N[C@@H](CO)C(=O)NCC(=O)N[C@H]1CSSC[C@@H]2NC(=O)CNC(=O)[C@H](C)NC(=O)[C@H](CC(C)C)NC(=O)[C@@H]3CSSC[C@@H](C(=O)NCC(=O)O)NC(=O)[C@H](Cc4ccccc4)NC(=O)CNC(=O)[C@H](CC(N)=O)NC(=O)[C@@H]4CCCN4C(=O)CNC(=O)[C@H](CSSC[C@H](NC(=O)[C@H](CCCNC(=N)N)NC(=O)[C@H](CCSC)NC(=O)[C@H](CC(C)C)NC(=O)[C@H]([C@@H](C)CC)NC(=O)[C@H](CCCNC(=N)N)NC(=O)[C@@H]4CCCN4C1=O)C(=O)N[C@@H](CCCCN)C(=O)N[C@@H](CCC(N)=O)C(=O)N[C@@H](CC(=O)O)C(=O)N[C@@H](CO)C(=O)N[C@@H](CC(=O)O)C(=O)N3)NC(=O)[C@H](C(C)C)NC2=O)C(=O)O | Trypsin (Sus scrofa, UniProt P00761) | enzyme activity, inhibitor, fluorescence |  | with preincubation | 0.132 nM |
| C/C=C/C[C@@H](C)[C@@H](O)[C@H]1C(=O)N[C@@H](CC)C(=O)N(C)C(Cc2ccc(C(=O)NCCOCCNC(=O)OCC3c4ccccc4-c4ccccc43)cc2)C(=O)N(C)[C@@H](CC(C)C)C(=O)N[C@@H](C(C)C)C(=O)N(C)[C@@H](CC(C)C)C(=O)N[C@@H](C)C(=O)N[C@H](C)C(=O)N(C)[C@@H](CC(C)C)C(=O)N(C)[C@@H](CC(C)C)C(=O)N(C)[C@@H](C(C)C)C(=O)N1C (stereo partly drawn) | Peptidyl-prolyl cis-trans isomerase F, mitochondrial (Ppif, Rattus norvegicus, UniProt P29117) | PPIase activity, inhibitor |  | pH 7.5, 15 °C | 6 nM |
| CCN(C)C(=O)Oc1ccccc1/C=C1\Cc2cc(OC)c(OC)cc2C1=O | Cocaine esterase (CES2, Homo sapiens, UniProt O00748) | enzyme inactivation, inactivator, inactivation kinetics |  |  | 1.58 nM |
| N=C(N)Nc1ccc(CC(=O)NCC2(Nc3ccccc3)CCN(Cc3ccccc3)CC2)cc1 | Neuropeptide FF receptor 2 (Homo sapiens, UniProt Q9Y5X5) | cell-free assay |  |  | 2400 nM |

A few entries again:
| Structure (SMILES) | target | assay | test system | setting | Ki |
| --- | --- | --- | --- | --- | --- |
| CN1CCN(c2cn(C(=O)c3ccccc3)c3ccccc23)CC1 | 5-hydroxytryptamine receptor 6 (HTR6, Homo sapiens, UniProt P50406) | ligand displacement, radioligand |  | cell membranes | 187 nM |
| CCCCCCCCCCCCCCCC(=O)N[C@@H](CCC(=O)NCCCC[C@H](N)C(=O)NCC(=O)N[C@@H](CO)C(=O)NCC(=O)N[C@@H](CO)C(=O)NCC(=O)N[C@H]1CSSC[C@@H]2NC(=O)CNC(=O)[C@H](C)NC(=O)[C@H](CC(C)C)NC(=O)[C@@H]3CSSC[C@@H](C(=O)NCC(=O)O)NC(=O)[C@H](Cc4ccccc4)NC(=O)CNC(=O)[C@H](CC(N)=O)NC(=O)[C@@H]4CCCN4C(=O)CNC(=O)[C@H](CSSC[C@H](NC(=O)[C@H](CCCNC(=N)N)NC(=O)[C@H](CCSC)NC(=O)[C@H](CC(C)C)NC(=O)[C@H]([C@@H](C)CC)NC(=O)[C@H](CCCNC(=N)N)NC(=O)[C@@H]4CCCN4C1=O)C(=O)N[C@@H](CCCCN)C(=O)N[C@@H](CCC(N)=O)C(=O)N[C@@H](CC(=O)O)C(=O)N[C@@H](CO)C(=O)N[C@@H](CC(=O)O)C(=O)N3)NC(=O)[C@H](C(C)C)NC2=O)C(=O)O | Trypsin (Sus scrofa, UniProt P00761) | enzyme activity, inhibitor, fluorescence |  | with preincubation | 0.132 nM |
